Experimental data of several laboratories.
Parts stem from different laboratories: compare values within a part only.

Set 1
Target: Fragile X messenger ribonucleoprotein 1, C-terminal low-complexity region (Fmr1, Mus musculus, UniProt P35922)
Method: RNA Bind-n-Seq
Form: RNA
Medium: in vitro
Tested at: 200 nM
Notes: whole 134-nt RNA, ends assumed
With: 150 mM LiCl
Baseline: input library
Reading: higher = stronger binding
Each molecule: 7-deaza-guanosine replaces G
Shared flanks, not repeated: GGGAGUUCUACAGUCCGACGAUC … UGGAAUUCUCGGGUGUCAAGG
Oligonucleotide	log2 enrichment
UCAAGUCCUGUGCUACACAUCGUAUGUACCGAAUCGGCCCGGGGCCCGGGCCCGGAAAGUAUUAUGUUACGCCGUUCGGAUCUGCACUUC	-1.9
CAAGUCCUGUGCUACACAUCGUAUGUACCGAAUCGGGGCCCCGGCCCCGGCCCCGGAAAGUAUUAUGUUACGCCGUUCGGAUCUGCACUU	-2.45
AGUCCUGUGCUACACAUCGUAUGUACCGAAUCGGGAAAAAGGGUUUUUGGGAAAGGGAAAGUAUUAUGUUACGCCGUUCGGAUCUGCACU	-2.3
UCCUCAAGUCCUGUGCUACACAUCGUAUGUACCGAAUCGGUGGGUGGGGUGGAAAGUAUUAUGUUACGCCGUUCGGAUCUGCACUUCCAG	1.08
UGGCCCUGGUGGCAUGCGAGGAGGAAGAGGUGGCCUCAUGGAUCGUGGUGGUCCCGGUGGAAUGUUCAGAGGUGGCCGUGGUGGAGACAG	-0.38
CUGUGCUACACAUCGUAUGUACCGAAUCGGGUUUUUUUGGGGUUUUUUUGGGGUUUUUUUGGAAAGUAUUAUGUUACGCCGUUCGGAUCU	1.58
UUGUGAGAGCCACAGGAAAAGCAAGAAGGAGAAGAAGAAAAAGAAAAAGAGGAAACACAAGAAAGAGAAGAAGAAGAAAGACAAAGAGCA	0.738
CCUCAAGUCCUGUGCUACACAUCGUAUGUACCGAAUCGGUGGGUGGGGUGGGAAAGUAUUAUGUUACGCCGUUCGGAUCUGCACUUCCAG	-0.559
CAAGUCCUGUGCUACACAUCGUAUGUACCGAAUCGGAAAAAAAGGAAAAAGGAGGAAAGUAUUAUGUUACGCCGUUCGGAUCUGCACUUC	-0.798
CACAGACAACACGCACCCACACAGACACAGAGGGAAGGGUUUGGGAUGGGGACAGGGUGCACAGCAGGGCGGGGUAGGACCCCAGCCCCU	-1.17
UCCUGUGCUACACAUCGUAUGUACCGAAUCGGGGAAAGGGGUUUUUGGGGAAAAAGGGGAAAGUAUUAUGUUACGCCGUUCGGAUCUGCA	-0.804

Set 2
Target: Histone acetyltransferase KAT6A, winged helix 1, GST fusion (KAT6A, Homo sapiens, UniProt Q92794, residues 1-85)
Method: protein binding microarray
Form: double-stranded DNA, one strand shown
Medium: in vitro
Tested at: not given
Notes: 8-mer, flanks averaged, mean of 2 arrays, mostly near background
Baseline: not given
Reading: higher = stronger binding
Construct (chain): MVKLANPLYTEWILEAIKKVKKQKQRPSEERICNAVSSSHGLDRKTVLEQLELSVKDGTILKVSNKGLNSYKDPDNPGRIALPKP
Oligonucleotide	E-score
CCGCAAAA	0.161
GAGCTGGA	-0.15
ATAGTCGG	0.047
ACTTTTTA	-0.0679
CTAGGTAC	-0.133
ATTTAGCC	0.0249
CTACCTCA	-0.143
ATTATGAA	-0.00571
TCTCCAAA	-0.314
CGTGTGGC	0.104
AGCAGGAT	-0.312
CGGGAACC	0.361
CTCTGAAG	-0.0624
ACATAGAG	-0.172
GACCATAC	0.0184
AGTGTATA	-0.0835
AACCTGGT	-0.142
TATACGGA	0.115
AGCATTAG	-0.0285

Set 3
Target: Interferon regulatory factor 3, full length, phosphomimetic (IRF3, Homo sapiens, UniProt Q14653, residues 1-427, S386D/S396D/S398D/S402D/T404D/S405D)
Sequence of UniProt Q14653 (whole entry, unmodified, looked up): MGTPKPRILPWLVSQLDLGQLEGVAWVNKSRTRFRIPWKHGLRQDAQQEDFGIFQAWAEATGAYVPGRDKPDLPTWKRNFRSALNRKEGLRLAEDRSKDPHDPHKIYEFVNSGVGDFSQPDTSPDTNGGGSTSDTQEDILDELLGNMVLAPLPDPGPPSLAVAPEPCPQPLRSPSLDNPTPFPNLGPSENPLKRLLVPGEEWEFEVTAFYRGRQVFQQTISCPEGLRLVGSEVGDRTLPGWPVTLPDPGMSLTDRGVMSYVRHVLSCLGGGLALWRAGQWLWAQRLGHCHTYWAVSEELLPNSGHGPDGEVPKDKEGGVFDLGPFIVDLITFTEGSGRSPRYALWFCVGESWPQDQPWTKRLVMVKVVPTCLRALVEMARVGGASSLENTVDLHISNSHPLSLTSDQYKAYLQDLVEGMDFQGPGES
Method: protein-binding microarray
Form: double-stranded DNA, one strand shown
Medium: in vitro
Tested at: 2540 nM top
Notes: 60-bp whole probe
With: salmon DNA 0.4 mg/ml
Baseline: random background probes
Reading: higher = stronger binding
Shared flanks, not repeated: GCCTAGCAC … GTCTTGATTCGCTTGACGCTGCTG
Oligonucleotide	fitted relative affinity
GACGGTATCGGTATCTGGACGTGCTAG	3.93 z-score
TTAGGTACCGGGTTTCGGTTAGTGCTA	2.93 z-score
TCAGGACTGGGACTGGGTTAGTGCTAG	-0.749 z-score
TTAGGACAGGGTTTCGGTTAGTGCTAG	2.91 z-score
TCAATTTTGTTTTTCATACTGTGCTAG	2.11 z-score
TTAGGTATCCTTCTCCTTTAGTGCTAG	7.09 z-score
GACGGTATCCTTCTCCCGACGTGCTAG	7.59 z-score
GACGGTTTCCTTCGCCTGACGTGCTAG	3.72 z-score
TTAGGTTCCCTTTCCCTTTAGTGCTAG	8.03 z-score
TCATACTTCTCTTTTGGACTGTGCTAG	1.39 z-score
GAAAATCCCACATTTGATAAAGTGCTA	0.645 z-score
TCAGTGGTCTGTTTCTGACTGTGCTAG	1.39 z-score
TCAGAGTCCTGTTTGATACTGTGCTAG	0.176 z-score
TTAGAACAGGGGTATCGATTAGTGCTA	-0.309 z-score
TCAGGTTTCCTTATCCTTTAGTGCTAG	8.2 z-score
GCTGGTCACTCTCTGGGCTGGTGCTAG	-0.223 z-score
TTAGAACTGAGTATGGATTAGTGCTAG	-0.341 z-score
GTTCAAAGTCCTACGGCTTCGTGCTAG	-0.267 z-score
TCACCAATCAGGACTCAGACTGTGCTA	1.15 z-score
GACGGACTGAGGACTGGGGACGTGCTA	-0.99 z-score
TTAGGCTCCGGTTTCGGTTAGTGCTAG	4.27 z-score
TTGGTTTTCATTATTGCTTCGTGCTAG	2.55 z-score

Set 4
Target: RNA binding protein fox-1 homolog 2, RRM domain, GST-SBP tag (RBFOX2, Homo sapiens, UniProt O43251-10, residues 100-194)
Method: RNA Bind-n-Seq
Form: RNA
Medium: in vitro
Tested at: 365 nM
Notes: natural RNA segment, single round, ends assumed
Baseline: no-protein control
Reading: higher = stronger binding
Shared flanks, not repeated: GGGAGUUCUACAGUCCGACGAUC … UGGAAUUCUCGGGUGCCAA
Residues (chain): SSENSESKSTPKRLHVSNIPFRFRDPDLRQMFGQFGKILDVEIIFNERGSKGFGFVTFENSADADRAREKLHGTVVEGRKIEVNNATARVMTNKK
Oligonucleotide	RBNS enrichment (R)
GACGGGAACACGCCGGAGGGUAGAGCUGGGGAGAACCCAUUCUUCCUUGGAAGGAUCCGCUGAAGGUCAGCGUAUAGGUGAUGUACAGUUCCUAAUAUCACAUCAGUCUC	0.368
GGGGUGAUGUUUUACUUUUCACAGUAUGGGCUACACAGCAGCUGUUCAACAAGAGUAAAUAUUGUCACAACACUGAACCUCUGGCUAGAGGACAUAUUCACAGUGAACAU	0.324
AGAUUUGCCUUAUUUUCAGGUUGUUUUAUUUAACGAUGGUUCCUUGGACAGCAUUCUGGUGUUCAGCAACCAAUAUGGAAUAUUUGUCAUUAAAUCCAUAUCAGUCUUUU	0.37
GAUGGAGUUGGUGACAAGAGCAGAGGAGCAAGAAUCCCUGCAAGCAGUAGACUGGUUUCCACUGGAGGGUGAAUGCAGAUACCUUUUAUUAACGAUAUACUUACUAAAUG	1.59
CGAAGCCCACGCCAGCCCGGGGAUGGAGCAUGUAUGUAUUAUUUAUCUGCUGGAGUUCUACGUUUUUAUGUAAGCAUGAAACACAGGCAGUGUGAGAGAAAGCCAGGACC	7.21
GCAAGUAGUUUCAACAUACUCCAGGAACUGAGAAACAAAACAAAGCAAUUGUGGGUUUUGAGCUCCAUAUACUCUUAGCAAGUAAGGGGGCGUCUUGCCCCUAUAUAUCA	0.574
UCUCUUUUUCAAGUUGUCCUUUCUUCACCCUUUACUGAUUUAAUACAGAAUAACAAUCUUAUUUUCUAUUUGAUAACUAUGGUAUCAUAUUGGGUUACUGUAUAAGGAAA	0.611
GGCUCUGAAUCCUAUGAAUCAAGGAAAUAACCCGUUCUCUGGAAGACACUGAAACAGGAGAGAGGGACUUCCGUCCACUGGGCAGGGUACAGAUGUGUCUCAGUUGUGAA	0.586
GGAUGUUUGGAGUAGAUACUGGUCUGUGAUUGGUGGAAUGGAGAACACACGUGUUGGUGCUUCUGGGUAGCACUGGUUUGCAUUAGUUUAUGUUUCCAUGCCAGAGUUUG	1.89
CUUCCCAUCACUUUUCAGUUUCAGAUUGAAGACUCACGAUUGGUUCCACCUUACAAGCAAGGAAAGGAAUAUUGACCUUCAAACUCAUUCAGUGUUGGAGCUCUCUAUGA	0.425
GGACUGCUGAGCUAGUCCAGGGGUAGCCGGUCCCCUCAUGCAUCUGCUGCCUUAGCUUCUAGAACGGAGCAAGCUUUUACGUACCUAGGUGACAUGUAGAAAAAUUUACA	0.25
UACAGAACUGGGAUGUGAACAUUGGUCAGAGACCCCACCCAUUAGUAGCUGGAGCCUCUGGGCUCCUCAGUCCCAUGCAACAUCCCUGGGACCUGGGGAAGGGAUGCUGA	0.758

Set 5
Target: PABPC1L2, full length, GST fusion (mouse, UniProt A0ABA7IW68)
Method: RNAcompete
Form: RNA
Medium: in vitro
Tested at: 20 nM
Notes: 7-mer, probes averaged, single round
Baseline: mean of 7-mers
Reading: higher = stronger binding
Target sequence (chain): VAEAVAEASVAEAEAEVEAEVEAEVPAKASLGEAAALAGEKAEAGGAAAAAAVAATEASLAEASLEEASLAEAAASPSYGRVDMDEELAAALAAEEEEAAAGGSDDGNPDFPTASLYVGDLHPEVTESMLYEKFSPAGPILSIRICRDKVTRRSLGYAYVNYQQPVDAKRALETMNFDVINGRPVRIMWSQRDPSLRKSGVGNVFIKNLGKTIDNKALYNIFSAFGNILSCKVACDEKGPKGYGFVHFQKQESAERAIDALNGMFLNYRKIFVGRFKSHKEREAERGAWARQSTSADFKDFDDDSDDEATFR
Oligonucleotide	7-mer Z-score
AAUUAAG	0.321
GGUAGAU	0.0352
UAGUAUG	-0.211
GCUGGAA	0.271
CUCAGUU	-0.398
GUACCCC	-0.452
UAUACGA	-0.164
AGGCCUU	-0.289
GAUUCGC	-0.421
AAGCACA	0.138
AACCGAC	0.0243
CAAUCUC	-0.0917
AGCAAUG	-0.0174
GGGACCG	0.0189
GAUCAGC	-0.229
UCCCCGG	-0.479
CUGCACA	-0.121
UGCUAAG	-0.242
AGUGCGC	-0.133
CUAGGAA	0.182
UAGGACA	0.0841
AAUAGCG	0.494
GGUCGUG	-0.211

Set 6
Target: Sal-like protein 4, full length isoform B (SALL4, Homo sapiens, UniProt Q9UJQ4-2, residues 1-616)
Method: universal PBM
Form: double-stranded DNA, one strand shown
Medium: in vitro
Tested at: not given
Notes: 8-mer, flanks averaged, mean of replicates
Reading: higher = stronger binding
Construct (chain): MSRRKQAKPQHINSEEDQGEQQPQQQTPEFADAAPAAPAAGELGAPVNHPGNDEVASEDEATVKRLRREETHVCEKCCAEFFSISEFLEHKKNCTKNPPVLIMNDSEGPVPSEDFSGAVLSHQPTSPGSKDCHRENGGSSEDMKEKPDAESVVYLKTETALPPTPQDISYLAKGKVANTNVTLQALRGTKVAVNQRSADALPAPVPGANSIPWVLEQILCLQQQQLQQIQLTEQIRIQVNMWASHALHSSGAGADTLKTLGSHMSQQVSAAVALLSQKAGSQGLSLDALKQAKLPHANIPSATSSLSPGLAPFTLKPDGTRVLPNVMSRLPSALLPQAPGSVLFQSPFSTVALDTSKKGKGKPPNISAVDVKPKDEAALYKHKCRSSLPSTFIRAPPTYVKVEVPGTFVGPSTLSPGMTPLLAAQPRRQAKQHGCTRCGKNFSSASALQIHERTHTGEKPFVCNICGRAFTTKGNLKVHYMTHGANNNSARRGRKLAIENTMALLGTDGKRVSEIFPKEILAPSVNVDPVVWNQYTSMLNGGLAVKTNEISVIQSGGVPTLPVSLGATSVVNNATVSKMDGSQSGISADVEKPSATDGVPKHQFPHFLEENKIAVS
Oligonucleotide	E-score
CACGCAAG	0.00827
GTCCGTTA	-0.0918
CAGGAACG	-0.206
AGAATATC	0.18
CAGGATGG	-0.103
CACGCCGC	-0.19
CATTAAGC	0.0435
GGGGACTA	-0.03
AACGATAA	0.167
AGTAGTAA	0.239
GTATCAGA	0.0929
ATACCAAT	0.169
CTTGTCGC	-0.104
CTTTCGGA	-0.0175
TTCGAAAA	0.171
CTAGGAAC	-0.121
TCATTTCA	0.231
GCTCGCCA	-0.26
TGTGCGAA	-0.0464
AGCCATAA	0.255
GTGATCAA	0.0815
CGTTCAAA	-0.022
TCGGATAA	0.131
AACTGTGT	-0.0214
ACTTCTGG	-0.217

Repeated from above (set 5):
Oligonucleotide	7-mer Z-score
AGGCCUU	-0.289
UCCCCGG	-0.479
AAUAGCG	0.494
GAUUCGC	-0.421
CAAUCUC	-0.0917
UGCUAAG	-0.242
AGCAAUG	-0.0174
AACCGAC	0.0243
GGGACCG	0.0189
CUCAGUU	-0.398
GGUAGAU	0.0352
AAGCACA	0.138
GGUCGUG	-0.211
GCUGGAA	0.271
GAUCAGC	-0.229
UAGUAUG	-0.211
